Measured values gathered from unrelated publications.
Each numbered part is a random draw from the data of one study; scales do not carry over between parts. Changes are numbered by the printed parent chain.

Set 1
Target: ABI1, truncated, D143A, DHFR fusion (Arabidopsis thaliana)
Technique: DHFR PCA, deep sequencing
Medium: yeast
Notes: methotrexate growth selection, single substitutions
Added: (+)-ABA 0.032 µM
Reference: wild-type fitted maximum
Direction: higher = stronger binding
Parent: PYL1, truncated, DHFR fusion (Arabidopsis thaliana); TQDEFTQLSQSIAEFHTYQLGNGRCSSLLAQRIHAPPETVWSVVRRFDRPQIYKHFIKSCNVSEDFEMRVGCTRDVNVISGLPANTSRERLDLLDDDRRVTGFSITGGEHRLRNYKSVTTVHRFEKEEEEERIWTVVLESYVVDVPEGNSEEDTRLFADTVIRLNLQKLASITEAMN
Substitution	relative binding score [%]
R88Q	26.4
T160A	8.26
N85T	60.7
Q19R	23.7
S104P	-3.81
I162T	8.66
A170D	3.38
G148M	-9.57
Q2K	16.1
T154W	-7.04
S171G	2.93
G21M	6.41
Y141T	-3.26
D48P	-1.38
T154I	16.8
L82R	5.88
F15R	-1.13

Set 2
Target: UBE2V1 UBC core domain (UniProt Q13404)
Technique: yeast two-hybrid
Medium: yeast
Notes: mostly zero background
Reference: not given
Direction: higher = stronger interaction
B1: MKRN2 RING domain (UniProt Q9H000); chain FAFQASQDKVCSICMEVILEKASASERRFGILSNCNHTYCLSCIRQWRCAKQFENPIIKSCPECRVISEFVIPSV
B2: RNF31 RING domain (UniProt Q96EP0); chain AFLRRLLAQECAVCGWALPHNRMQALTSCECTICPDCFRQHFTIALKEKHITDMVCPACGRPDLTDDTQLL
B3: TRIM31 RING domain (UniProt Q9BZY9); chain FVNKLQEEVICPICLDILQKPVTIDCGHNFCLKCITQIGETSCGFFKCPLCKTSVRKNAIRF
B4: TRIM60 RING domain (UniProt Q495X7); chain ALVNLQEESSCPICLEYLKDPVTINCGHNFCRSCLSVSWKDLDDTFPCPVCRFCFPYKSFRR
B5: RNF166 RING domain (UniProt Q96A37); chain GDSGLEAQYTCPICLEVYHRPVAIGSCGHTFCGECLQPCLQVPSPLCPLCRLPFDPKKVDK
B6: MEX3B RING domain (UniProt Q6ZN04); chain SGLRRKGSRDCSVCFESEVIAALVPCGHNLFCMECANRICEKSEPECPVCHTAVTQAIRIF
Construct (chain): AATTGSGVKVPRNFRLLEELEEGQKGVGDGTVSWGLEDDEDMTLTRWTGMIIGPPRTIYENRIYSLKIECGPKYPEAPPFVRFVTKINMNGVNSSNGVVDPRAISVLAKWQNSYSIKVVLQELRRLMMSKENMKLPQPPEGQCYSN
Sequence	lacZ reporter activity
B1 (MKRN2 RING domain)	0
B2 (RNF31 RING domain)	0
B3 (TRIM31 RING domain)	0
MNDVLENELQCIICSEYFIEAVTLNCAHSFCSYCINEWMKRKIECPICRKDIKSKTYSL (RNF8 RING domain (UniProt O76064))	0
YPEEVDDDLICHICLQALLDPLDTPCGHTYCTLCLTNFLVEKDFCPMDRKPLVLQHCKK (LNX1 RING domain (UniProt Q8TBB1))	0
B4 (TRIM60 RING domain)	0
RYRQMEERITCPICIDSHIRLVFQCGHGACAPCGSALSACPICRQPIRDRIQIF (MIB2 RING domain (UniProt Q96AX9))	0
B5 (RNF166 RING domain)	0
B6 (MEX3B RING domain)	0

Set 3
Target: CCNA2, cyclin fold, Cln2 fusion (human)
Technique: yeast growth competition, sequencing
Medium: yeast
Notes: strong parent motif
Reference: not given
Direction: higher = stronger binding
Parent: RB1 docking peptide (human); PKPLKKLRFDIEG
Substitution	normalised enrichment score
TKPLKKLRFDIEG [P1T]	1.61
PKPLKKLRKDIEG [F9K]	0.875
PKWLKKLRFDIEG [P3W]	1.93
PKPLKKLSFDIEG [R8S]	1.6
DKPLKKLRFDIEG [P1D]	0.706
PKPLKKLRFDIEW [G13W]	1.41
PKPLCKLRFDIEG [K5C]	0.253
PTPLKKLRFDIEG [K2T]	0.128
PKPLKKLCFDIEG [R8C]	0.923
PKPLIKLRFDIEG [K5I]	0.328
PKPLKLLRFDIEG [K6L]	0.669
PKPLKKLRFDYEG [I11Y]	1.08
QKPLKKLRFDIEG [P1Q]	1.16
PKPLKKGRFDIEG [L7G]	0.882
PKRLKKLRFDIEG [P3R]	1.11
PKPLKKERFDIEG [L7E]	-0.0921
PKQLKKLRFDIEG [P3Q]	0.449
PKPLKKLRFDIEH [G13H]	1.09
PKPLKKLRDDIEG [F9D]	0.433
PKKLKKLRFDIEG [P3K]	0.427
EKPLKKLRFDIEG [P1E]	0.836
PKPLKKLRFDIEE [G13E]	1.77

Set 4
Target: RNA binding protein fox-1 homolog 2, RRM domain, GST-SBP tag (RBFOX2, Homo sapiens, UniProt O43251-10, residues 100-194)
Technique: RNA Bind-n-Seq
Form: RNA
Medium: in vitro
Concentration: 365 nM
Notes: natural RNA segment, single round, ends assumed
Reference: no-protein control
Direction: higher = stronger binding
Construct (chain): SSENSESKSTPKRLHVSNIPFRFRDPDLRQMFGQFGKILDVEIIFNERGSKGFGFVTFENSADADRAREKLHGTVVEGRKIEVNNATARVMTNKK
Oligonucleotide	RBNS enrichment (R)
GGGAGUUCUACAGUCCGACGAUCCCAGCUCUCAUUGUGUGUGCUCAGGGCUAAGUCUAAACAAGGGUUUGCUGGCCCCCAAGCUGUUGUUUGUUAGGUGAGGUUAAGUAGGGCUCUUCUGGUCCUGUGCAUACUGGAAUUCUCGGGUGCCAA	3.35
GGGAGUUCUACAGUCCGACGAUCCAGUCUUAAUUUUUAAAUAUCUGAUCAUUUUAUAUUGUCCGAUCAUUUCAGCACCUCCAAAGGGUCCUAGGAUAUUCUGCCUCUCUCUUCACCCUGUCCCCAGACGGGGGUGGAAUUCUCGGGUGCCAA	0.518
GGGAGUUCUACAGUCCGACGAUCGAUGUUGGUCCACAUUGUCAAGAAGUCAUGUAAUAAUAAUAAAUACAUAUUCUACCUGCUACUUGAACCAUGAGUUUUGCACACCAGAGGUUUAAUGUUUAAGUGUUGGAUGGAAUUCUCGGGUGCCAA	0.524
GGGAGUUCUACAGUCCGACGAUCUUACAUGAUGUGUGAUUUAGGGCUUAGUUAAUUCUCUAGAAUUCAAAAACUAUUAUUGAUGUAUUAAAAGAAAUUACGGUACCACGUUGAUUAGUCUGAAUGUUUGCAGGUGGAAUUCUCGGGUGCCAA	4.3
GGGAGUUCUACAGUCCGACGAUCUGAGAGGCUGGCUUUUGUUUACUAAGUUGUAGCAUUUAGACAUCCCAUGGCAGUCUAACUUAGCCUGCUUGUCUAAAUUGACUUCUGGUAACCACUUGGGCUAGGACACAUGGAAUUCUCGGGUGCCAA	0.376
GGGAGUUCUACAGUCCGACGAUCAUAUGAGUCAAGUGCCAGCUGGACCUGAGGCCUGCUUCCCCGCGUGCGGGGCAGAGGCCCUUCUCUGCGCCAAAUGUCUGACUACACAGUAUACACAGGACAUUGUUGCUUGGAAUUCUCGGGUGCCAA	0.349
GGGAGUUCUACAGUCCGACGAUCUUCCACUGACUUGCUGUGUGACCUUAGGAAGUCUCUGCCCCUCUCUCAGCCUCAGUGUCCCGAGGGCCCCGAAGCAUUCCAUUCUCGUGGAGGAGUUUCCUUGCUGAGAUUGGAAUUCUCGGGUGCCAA	0.609
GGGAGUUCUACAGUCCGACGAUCGGAGGGAAGAGAUGGCCGCAAGAGGGGCCACCUCUUAGGUCAGAUGGAAGAUCUCAGAGCCAAGUCCUUCUACUCACGAGUAGAAGGACCGUUGGCCAACAGCCCUUUCAUGGAAUUCUCGGGUGCCAA	0.35
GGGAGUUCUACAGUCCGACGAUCCACCACUGCAAACCCCCAAAUUGUAUGGAAGCCCCACACAGAUAGGGCCAAGCUAUAGAGGCAUGAUCAAUGUCUCCACCUCAUCAGACAUGGACCAUAACUCUGCUAUAUGGAAUUCUCGGGUGCCAA	0.47
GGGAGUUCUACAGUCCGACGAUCCCCCAUGUUAGUCCUAUGCCUUGAAAUAUCAUGCACCAUGACCCACAGCCAUCUGGUUAUGUCUUAUUUUUUUCCUAAAAGAUAAUGUUUAUUUUUAAAAAGGAAGGAAGUGGAAUUCUCGGGUGCCAA	0.555
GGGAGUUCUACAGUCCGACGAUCUUUGUACUGCUUGUUUAGGAUAACACACAAAGUUCAGCCUUGAACGCAUGGUGAUCCUCCCCGCUCAGCCUCCUGAGGACUGGGAUUAAAGGUGUGUGCCUCCAUACUCUUGGAAUUCUCGGGUGCCAA	2.92
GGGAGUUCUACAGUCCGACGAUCAUCUGGAAGACAAGGUCAUUUCAUCUUGAGAUCAUGGUGAAAUAUUUUGGAUAUAUAAAUUCCUUAAGCUAUUGUAACCAUGUUUUAUUGCAAAGAUGUAAAAUAUGCCAUGGAAUUCUCGGGUGCCAA	0.314

Set 5
Target: RING finger protein unkempt homolog, zinc fingers 1-6, GST-SBP tag (UNK, Homo sapiens, UniProt Q9C0B0, residues 30-357)
Sequence of UniProt Q9C0B0 (30-357, looked up): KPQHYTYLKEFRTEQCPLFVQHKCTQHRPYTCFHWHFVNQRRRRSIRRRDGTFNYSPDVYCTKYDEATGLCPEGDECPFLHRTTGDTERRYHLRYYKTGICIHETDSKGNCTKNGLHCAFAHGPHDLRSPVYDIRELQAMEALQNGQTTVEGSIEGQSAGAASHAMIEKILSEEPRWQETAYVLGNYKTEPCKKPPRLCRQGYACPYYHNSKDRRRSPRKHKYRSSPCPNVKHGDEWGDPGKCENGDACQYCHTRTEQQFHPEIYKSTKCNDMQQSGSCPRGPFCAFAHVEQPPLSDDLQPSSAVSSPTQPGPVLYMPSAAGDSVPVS
Technique: RNA Bind-n-Seq
Form: RNA
Medium: in vitro
Concentration: not given
Notes: RNA with constant flanks, ends assumed
Reference: input RNA pool
Direction: higher = stronger binding
Oligonucleotide	bound/input enrichment [ratio]
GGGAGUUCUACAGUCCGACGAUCUUAGAAUGUGAAUUCUAUCUGUUAGAACUAAUGGAUUGUUGCUUGAUAGUGUAUCAUCCUUACCGACCUUUGCUCCAGUAUGUGCAGGACAUGGGCCAAGAAGACAUGUUGCUUCCCCUUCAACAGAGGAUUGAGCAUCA	0.173
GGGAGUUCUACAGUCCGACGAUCGAGGUUCCUGCGGACUAGCGGUGGCUUCGCGUGGGUGGAGGAGGCGCGGCUGCAGUCUUUAAGAAACCGAAAUGGCUUCCAAAAGAGCUCUGGUCAUCCUGGCCAAAGGAGCAGAGGAGACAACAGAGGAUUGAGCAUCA	0.213
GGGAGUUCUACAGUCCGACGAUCAAAGAAUGGAUAGAAUGUGCACAUGGAAUCGGUUAUACUCGGGCAGAGAAAGAGUGCAAGACCGAAUAUGAUGAUUUCGUAGAGUGUUUGCUUCGGCAGAAAACGAUGAGACGUGCAGGUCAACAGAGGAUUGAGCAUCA	0.325
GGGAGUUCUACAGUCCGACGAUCUCAAAAUUCUUCUCUGCCUACAAAAGUCAUUUCCGGAAUGUCCAUAGUGAAGACUUUGAAAACCGGAUUCUCCUUAACUGCCCUUACUGUACCUUCAAUGCAGAUAAAAAGACUUUGGAACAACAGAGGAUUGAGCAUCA	0.173
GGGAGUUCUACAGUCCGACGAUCUUAAGACCCUCGCUCCUGCUGCUAACACAGACCGUUAACCAGAGGAGGCUUCCAUCGCCGCCAUAAUGCCUGUCGUCGUACAGCUCAGUAGCCCGUUCUCUUUCACAGUUCAACGUGUACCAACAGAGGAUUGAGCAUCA	0.142
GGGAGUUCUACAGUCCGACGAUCUUUGUUUAUUUGCUAGUGAGUUUCUUUGUAACGUUGAUUUUAUUAAAUGAUAAUAUUUGGUCCGUAUGUCCUAUGUUAAUAAAAAUGAACAAAAUUAAUUUUGCUAUGUUCAGGUGUCUUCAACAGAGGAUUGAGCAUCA	0.733
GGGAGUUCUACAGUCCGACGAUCGUCUUCUCUUCUUCCUGUUUGUUCUCCCCGUGUUGUCCUCCUGCUGGCCAAGCGGCCUCUCCGCCGUGGUGGGUUUGGUGAAGGUAUCUUCUCUACCCAGCGCUUGACCUGAGUGGUGUGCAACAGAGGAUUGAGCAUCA	0.355
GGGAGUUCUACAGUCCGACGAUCAAUGAAACUGCAGAAAAAAAUUUGGGAGUCCUGGCAGAUGAAGACAAUACAUUGCAACAGAACCGCAGCAGUAAUAUCAGUUACAGCAAUGCAAUGCAGAAAGAAAUCACACUGCCUUCACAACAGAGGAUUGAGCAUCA	0.151
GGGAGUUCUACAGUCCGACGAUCAUCCUCUCUGGAACAUCAGACCUGCUCCUUACCUUCGAUGAGGCUGAGGUCCGUAAAAUUAUCCGAGUUUGCAAAGGAAUUUUGGAAUAUCUUACAGUGGCAGAGGUGGUGGAGACUAUGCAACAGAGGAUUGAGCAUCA	0.27
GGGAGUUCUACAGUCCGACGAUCAAAAUCUCUGAUGACCUGAUGCAGAAGAUCAGCACUCAGAACCGCCGAGCCCUGGACCUCGCCGCUGCCAAGUGUUACUAUUAUCACGCCCGGGUCUAUGAGUUCCUGGACAAGCUGGAUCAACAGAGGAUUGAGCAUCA	0.142
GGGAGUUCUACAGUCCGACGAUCAAACAUGGAUGUGGUGGCAUAACUUUCGGACUCUGUGUGACUAUAGCAAGAGAAUUGCAGCCGGUAAGUCCACAAGGGUUCUGAGAUAUGAGCGGCCUCCUAGAAAUGAGAAUCAACAGGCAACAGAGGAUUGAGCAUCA	0.198

Repeated from above (set 2):
Sequence	lacZ reporter activity
B2 (RNF31 RING domain)	0
B5 (RNF166 RING domain)	0
B4 (TRIM60 RING domain)	0
B6 (MEX3B RING domain)	0
YPEEVDDDLICHICLQALLDPLDTPCGHTYCTLCLTNFLVEKDFCPMDRKPLVLQHCKK (LNX1 RING domain (UniProt Q8TBB1))	0
RYRQMEERITCPICIDSHIRLVFQCGHGACAPCGSALSACPICRQPIRDRIQIF (MIB2 RING domain (UniProt Q96AX9))	0
B1 (MKRN2 RING domain)	0
B3 (TRIM31 RING domain)	0
MNDVLENELQCIICSEYFIEAVTLNCAHSFCSYCINEWMKRKIECPICRKDIKSKTYSL (RNF8 RING domain (UniProt O76064))	0
